Results pooled from the literature.
Numbered parts are unrelated; each lists some results of a single study.

Set 1 — technique: RNA Bind-n-Seq; molecule type: RNA; matrix: in vitro; concentration: 365 nM; baseline: no-protein control; direction: higher = stronger binding
Target: RNA binding protein fox-1 homolog 2, RRM domain, GST-SBP tag (RBFOX2, Homo sapiens, UniProt O43251-10, residues 100-194)
Setting: natural RNA segment, single round, ends assumed
Constant ends, left off below: GGGAGUUCUACAGUCCGACGAUC … UGGAAUUCUCGGGUGCCAA
Target sequence (chain): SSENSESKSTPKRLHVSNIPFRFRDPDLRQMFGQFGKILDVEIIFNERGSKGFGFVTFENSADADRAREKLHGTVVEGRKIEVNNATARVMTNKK
Oligonucleotide	RBNS enrichment (R)
AUGUGUUCCCACACAUCCACAUCAUGGGAAGGUUAAUGUGUGCCUCCUUGGAACUGGGUGUUGGUGUCCAUGGAACUUCCUCUCUGUAUCUCAGGUCAGUAGGCGCAGAA	0.765
GUAGAAAUUCUCGAGUAUUUUGGUGUUGGAUAGAAUAUAGAACAUAGGGGAAAGAGACCAAACUGCCUGUAGUUAGUAACGAAGUAUGUAUGUUGUUCUUUUGUGUAUUU	1.35
UUUUCUGACCCUUCUCGAGGACAUUUGCUUUCCUCACACUUUUGUAGUCUCUCUUUACAUAUUACUAUAUGGAAAUGAAUUGCUCUGUGCUGAAAUUUGAAGACCAGAUA	0.763
UGAGUUCAGAGGCAGCCGGAGCCUGGGGAGCCAUGCCCCAGGCCCUGUGACAUCCCCUCGCCCUGCAUGGAGCCUGUGUGUCACAGAAUCGCCCAACACUCCUGCACAUC	1.34
UCAGUGGCCCCAAGAGGGAGCUGAUAUCAUGAGGAUAACAUUGGCGGGAGGGGAGUUAACUGGCAGGCAUGGCAAGGUUGCAUAUGUAAUAAAGUACAAGCUGUUAAAAA	1.01
UUAAUAUUUUACUCAGCCAGAGUCUCAUUCAUUUGCUAAGCAUUGGGAACAUUAUGUAUAUUGACCUUAAACAUAGGUGUCCUAUAUUUGGAUUGUGACUUGUAGACUCA	0.454
ACUCAUUCCUUGUGUGUGUCUUGGAGUGCAUUUGACUCCAGGAAAAGCCAUUUUGGUUUUCCUUAACUAAAUGAUAAAUGUACCCCUCUCAGUCUGCAGUAUUGAGUUGU	0.391
UUUGUGAAACAGACUUGUAUAUUCUAUUUUACAACUACAAAUGCCUCCAAAGUAUUGUACAAAUAAGUGUGCAGUAUCUGUGAACUGAAUUCACCACAGACUUUAGCUUU	0.306

Set 2 — technique: RNA Bind-n-Seq; molecule type: RNA; matrix: in vitro; concentration: 100 nM; baseline: input RNA pool; direction: higher = stronger binding
Target: RING finger protein unkempt homolog, zinc fingers 1-6, SBP tag (UNK, Homo sapiens, UniProt Q9C0B0, residues 30-357)
Sequence of UniProt Q9C0B0 (30-357, looked up): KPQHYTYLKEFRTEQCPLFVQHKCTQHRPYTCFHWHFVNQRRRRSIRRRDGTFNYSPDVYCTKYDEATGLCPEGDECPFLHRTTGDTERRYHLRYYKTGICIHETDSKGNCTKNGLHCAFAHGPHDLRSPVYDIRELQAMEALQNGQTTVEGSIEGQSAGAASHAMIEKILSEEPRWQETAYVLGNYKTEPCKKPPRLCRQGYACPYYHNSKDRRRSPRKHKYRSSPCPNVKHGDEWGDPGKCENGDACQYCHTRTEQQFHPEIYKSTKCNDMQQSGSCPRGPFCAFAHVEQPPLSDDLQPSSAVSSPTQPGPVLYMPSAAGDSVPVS
Setting: RNA with constant flanks, vertebrate orthologous sites, ends assumed
Constant ends, left off below: GGGAGUUCUACAGUCCGACGAUC … CAACAGAGGAUUGAGCAUCA
Oligonucleotide	bound/input enrichment
UGAGGGAGAGAUUCCUGUGAUUGCUAAUAUUAAAUUUGCUCUUUUUAAGAUAUUUUAAUCUGCAAUUCUUAAUAAAACUGGCAUGCUUACGUUUCUCACCUGAGGAUUGGCCUCAUAUAA	0.359 ratio
CCGCACUAGAGGGUAGCAUAUGUUUCACAAAGAAGAGUCUUUAUAAUUUUGUUUGUCAUAUAGUAUUUUGGAAUUUGUACAAUGAGGAUGUUUAGAAGCCAUAUCAAUGGCUUUUUUAAA	1.16 ratio
AGUCCCCUGGGCCGGGACAGGUUUUUUUUUUAACGUCUUGAAAUUUAAACUCUGUGCUUGUAGGAGACUGUAACCUUUUUGUCUUUUUUUUUUUUUUUAAAAAAAAACAACCUCCACCUC	0.39 ratio
AAGAAAAGGAGUAGUCUAGGCAGGGGUAACCAUUAAUUUAUUUUAAAGAAAUCCUGAAAAUCCUAUUCAUAUUAGUUGGAGAAUUUAAAUAAGCAUCUUUGAGGUGAUUCUAAUAGUCUG	0.798 ratio
CUCCCUGAGCGACAGCGUGCCCUCGGUGGCGGACUCGCACUCGAGCCACUUCUCCGAGUUCAGCUGCUCCGACCUGGAGAGCAUGAAGACCUCCUGCAGCCACGGGUCCAGCGACUACCA	0.454 ratio
UAUUAGGAUCCUACCAGCCUGUUAACCUCUCGUCUGUGCACAGCUUCAAAUGUUACUGUCUAGUUAGAUUUUUAUUUAAAAUAUGAAAAACUGCUUUUCCCAAGACGUUUUUUAAAAAAA	1.16 ratio
ACACCUAUAUUGUGGCAUUUAGUCAACACGGAAGUAGACCAGCUCUGCUGAUUUGAAAUUUAGAUUUUUUUAAUUAUGUACUGGGGACAGGUUUUUGUCGCUUUACAUUGCUUCCUAGUU	5.08 ratio
UUUUAUUGAUCAGGUCUGUAAAUGUGUACUAGAAAAAUCAGAGUUUAUUUAUAAAUAGGAUAGAUUAUUUAAAGAGGUUUUCCUCCCCGAUAUCAUGGUAUGCAUAAUUCUGUGUGUUAC	0.66 ratio

Set 3 — technique: protein-binding microarray; molecule type: double-stranded DNA, one strand shown; matrix: in vitro; concentration: not given; direction: higher = stronger binding
Target: Transcriptional repressor CTCF (CTCF, Homo sapiens, UniProt P49711, residues 1-727, full length assumed)
Setting: k-mer, scored over probes, only values ≥0.25
Residues (chain): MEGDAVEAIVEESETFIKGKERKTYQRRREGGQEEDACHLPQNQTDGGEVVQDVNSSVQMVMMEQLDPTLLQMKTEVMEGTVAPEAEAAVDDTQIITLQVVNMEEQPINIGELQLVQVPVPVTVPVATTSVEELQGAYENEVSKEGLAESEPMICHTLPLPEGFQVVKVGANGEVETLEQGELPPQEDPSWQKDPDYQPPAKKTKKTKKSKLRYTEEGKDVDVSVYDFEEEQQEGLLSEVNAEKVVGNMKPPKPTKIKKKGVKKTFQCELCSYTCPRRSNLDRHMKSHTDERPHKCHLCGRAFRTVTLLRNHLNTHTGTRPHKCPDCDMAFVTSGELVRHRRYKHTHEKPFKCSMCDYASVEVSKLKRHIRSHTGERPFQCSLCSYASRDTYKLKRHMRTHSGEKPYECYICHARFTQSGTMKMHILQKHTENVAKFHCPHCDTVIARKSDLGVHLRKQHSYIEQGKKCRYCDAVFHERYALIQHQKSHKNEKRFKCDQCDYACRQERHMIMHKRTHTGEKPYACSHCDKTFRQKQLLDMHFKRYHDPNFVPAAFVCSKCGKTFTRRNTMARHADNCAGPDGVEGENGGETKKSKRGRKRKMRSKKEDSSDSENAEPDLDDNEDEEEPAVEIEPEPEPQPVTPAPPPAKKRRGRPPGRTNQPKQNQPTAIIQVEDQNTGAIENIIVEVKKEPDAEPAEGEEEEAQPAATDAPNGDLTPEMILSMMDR
Oligonucleotide	E-score
TTACGTAA	0.251
CTACAATA	0.26
AGTTGATA	0.254
ACGGCGCA	0.282
CGCCGCGC	0.271
ACTAAATA	0.253
ATTTAAAT	0.281
AGTCGACT	0.255
GCGCAAAA	0.417
ACCGCTAA	0.289
ATAATAAA	0.282
GCGCAACA	0.278
AACCCATA	0.293
GAAAAGGC	0.31

Set 4 — technique: universal PBM; molecule type: double-stranded DNA, one strand shown; matrix: in vitro; concentration: not given; direction: higher = stronger binding
Target: Sal-like protein 4, full length isoform B (SALL4, Homo sapiens, UniProt Q9UJQ4-2, residues 1-616)
Setting: 8-mer, flanks averaged, mean of replicates
Oligonucleotide	E-score
CGTACACC	-0.11
GGTATTAC	0.143
AGGTTGGA	-0.0492
AAAGCTGA	0.0676
ACCTCAAC	0.00133
AAGCTTAG	-0.0157
GTGCTAAA	0.0619
AACTGTTG	0.0822
TGATCGCA	0.0876
CTCAGCTA	-0.0253
TATCCGGA	-0.0206
ACATTAAC	0.213
ACAGGTAG	-0.0275
AGGAACGG	-0.165
CGGGGAGC	-0.364
CGCCTATA	0.116
AAGGCCTA	-0.113

Set 5 — technique: protein binding microarray; molecule type: double-stranded DNA, one strand shown; matrix: in vitro; concentration: not given; baseline: not given; direction: higher = stronger binding
Target: Histone acetyltransferase KAT6A, winged helix 1, GST fusion (KAT6A, Homo sapiens, UniProt Q92794, residues 1-85)
Setting: 8-mer, flanks averaged, mean of 2 arrays, mostly near background
Target sequence (chain): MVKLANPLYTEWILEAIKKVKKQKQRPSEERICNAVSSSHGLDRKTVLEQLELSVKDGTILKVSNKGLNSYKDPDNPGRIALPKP
Oligonucleotide	E-score
TATGGGGA	-0.0448
CCTGAAGG	-0.0446
CCAGTTAA	-0.187
ACTTGTTA	-0.113
CAAACTAC	-0.144
GGCGTGGA	0.237
CAGCACCA	-0.293
AGTTCCAT	-0.14
GGGATTAC	0.0287
ATTGGAAG	-0.127
GCCCGGAA	0.135
ACTGCAGC	-0.0945
CATGCTGC	-0.0333
ATCCGAAA	0.0138
GAAGGACA	-0.0729
AGGCGCTA	0.15

Some of these lines once more (set 3):
Oligonucleotide	E-score
ACCGCTAA	0.289
ATAATAAA	0.282
GCGCAACA	0.278
AACCCATA	0.293
